# Measurements of several laboratories.
# Lines come from different studies, so protocols differ. “And” joins repeats or separate records; there may be more than shown. ± marks the error that the study gave.
# Sequence of UniProt Q16566 (whole entry, looked up): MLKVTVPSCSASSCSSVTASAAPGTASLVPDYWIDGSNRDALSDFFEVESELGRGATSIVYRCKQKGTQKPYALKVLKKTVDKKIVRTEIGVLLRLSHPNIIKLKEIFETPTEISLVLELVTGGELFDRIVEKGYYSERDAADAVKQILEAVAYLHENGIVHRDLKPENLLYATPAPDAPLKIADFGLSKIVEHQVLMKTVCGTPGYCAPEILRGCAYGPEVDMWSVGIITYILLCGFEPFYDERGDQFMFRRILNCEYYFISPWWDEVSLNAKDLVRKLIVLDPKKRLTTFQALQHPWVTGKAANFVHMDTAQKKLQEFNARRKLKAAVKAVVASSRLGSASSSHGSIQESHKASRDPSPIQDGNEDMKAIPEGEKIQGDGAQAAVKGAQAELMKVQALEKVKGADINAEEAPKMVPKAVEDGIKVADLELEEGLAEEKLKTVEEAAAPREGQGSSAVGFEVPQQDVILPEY
# Sequence of UniProt Q9UPE1 (whole entry, looked up): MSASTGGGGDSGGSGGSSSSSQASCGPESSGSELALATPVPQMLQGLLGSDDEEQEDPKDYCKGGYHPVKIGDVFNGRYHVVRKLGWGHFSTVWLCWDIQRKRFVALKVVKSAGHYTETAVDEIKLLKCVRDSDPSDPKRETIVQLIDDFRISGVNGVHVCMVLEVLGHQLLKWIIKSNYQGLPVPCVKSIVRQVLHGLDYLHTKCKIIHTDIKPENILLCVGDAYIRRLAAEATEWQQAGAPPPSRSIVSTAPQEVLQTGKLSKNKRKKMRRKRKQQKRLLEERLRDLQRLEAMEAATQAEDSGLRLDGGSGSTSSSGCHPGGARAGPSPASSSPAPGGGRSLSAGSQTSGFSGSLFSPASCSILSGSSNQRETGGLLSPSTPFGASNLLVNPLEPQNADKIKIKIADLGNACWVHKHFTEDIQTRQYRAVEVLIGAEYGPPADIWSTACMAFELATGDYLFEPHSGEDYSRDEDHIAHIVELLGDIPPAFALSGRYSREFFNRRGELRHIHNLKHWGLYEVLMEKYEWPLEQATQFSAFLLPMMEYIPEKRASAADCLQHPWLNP
# Sequence of UniProt Q9UF33 (whole entry, looked up): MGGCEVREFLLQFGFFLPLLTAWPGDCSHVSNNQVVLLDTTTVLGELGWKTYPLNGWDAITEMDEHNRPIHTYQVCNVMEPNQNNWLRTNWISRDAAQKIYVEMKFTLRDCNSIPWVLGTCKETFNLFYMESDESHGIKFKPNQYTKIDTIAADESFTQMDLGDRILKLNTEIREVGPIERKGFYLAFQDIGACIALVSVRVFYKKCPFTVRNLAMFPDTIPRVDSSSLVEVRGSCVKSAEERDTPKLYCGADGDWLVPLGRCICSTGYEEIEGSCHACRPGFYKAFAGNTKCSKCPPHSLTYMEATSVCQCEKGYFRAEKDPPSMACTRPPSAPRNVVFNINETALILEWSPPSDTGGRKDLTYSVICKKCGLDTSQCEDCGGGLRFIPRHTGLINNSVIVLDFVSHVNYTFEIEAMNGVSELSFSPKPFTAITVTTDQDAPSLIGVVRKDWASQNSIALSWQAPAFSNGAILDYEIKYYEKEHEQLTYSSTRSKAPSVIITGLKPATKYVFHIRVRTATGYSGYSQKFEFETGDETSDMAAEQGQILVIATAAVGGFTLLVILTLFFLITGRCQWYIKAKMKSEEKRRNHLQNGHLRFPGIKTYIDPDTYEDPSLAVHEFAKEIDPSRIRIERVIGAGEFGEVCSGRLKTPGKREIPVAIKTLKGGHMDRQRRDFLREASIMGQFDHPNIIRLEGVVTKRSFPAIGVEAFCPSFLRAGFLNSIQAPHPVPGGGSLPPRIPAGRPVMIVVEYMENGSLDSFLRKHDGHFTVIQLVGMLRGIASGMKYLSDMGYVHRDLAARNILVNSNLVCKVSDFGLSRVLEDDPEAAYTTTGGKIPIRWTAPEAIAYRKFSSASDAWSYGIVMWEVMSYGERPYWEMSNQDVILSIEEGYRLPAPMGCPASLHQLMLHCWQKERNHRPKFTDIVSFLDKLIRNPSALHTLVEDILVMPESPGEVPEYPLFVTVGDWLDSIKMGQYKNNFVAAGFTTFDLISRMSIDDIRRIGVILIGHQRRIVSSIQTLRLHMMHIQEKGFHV
# Sequence of UniProt Q96SB4 (whole entry, looked up): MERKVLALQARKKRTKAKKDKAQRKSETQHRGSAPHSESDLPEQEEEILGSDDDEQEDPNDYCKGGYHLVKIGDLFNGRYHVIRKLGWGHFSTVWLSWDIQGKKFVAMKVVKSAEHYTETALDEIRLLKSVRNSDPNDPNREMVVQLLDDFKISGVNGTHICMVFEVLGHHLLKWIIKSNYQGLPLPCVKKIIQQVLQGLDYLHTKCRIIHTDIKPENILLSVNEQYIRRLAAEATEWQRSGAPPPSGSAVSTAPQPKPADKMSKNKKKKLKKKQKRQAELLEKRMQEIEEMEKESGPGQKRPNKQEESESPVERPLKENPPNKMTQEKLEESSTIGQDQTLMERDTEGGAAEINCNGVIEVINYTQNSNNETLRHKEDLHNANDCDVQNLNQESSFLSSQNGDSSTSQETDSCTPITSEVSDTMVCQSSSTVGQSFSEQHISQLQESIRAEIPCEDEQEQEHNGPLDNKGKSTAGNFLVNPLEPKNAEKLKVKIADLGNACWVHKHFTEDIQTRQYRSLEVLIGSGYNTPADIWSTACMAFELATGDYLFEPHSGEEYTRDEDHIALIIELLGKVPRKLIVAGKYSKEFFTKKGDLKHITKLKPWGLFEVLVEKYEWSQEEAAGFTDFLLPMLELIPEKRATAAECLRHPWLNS
SMILES,target or system,test,system,conditions,scale,endpoint,value
CCOC(=O)C1(Cc2ccccc2C#N)Oc2cc(F)ccc2N(Cc2ccccc2C#N)C1=O (stereo not shown),Eclipta prostrata,"fresh weight, greenhouse postemergence",,"postemergence, 150 g ai/ha, 21 days",,inhibition,50.2 ± 2.36%
CN(C)[C@H]1C[C@@]23CC[C@@]4(O2)C(=CC[C@]2(C)[C@@H](c5ccc6ccncc6c5)CC[C@H]24)C=C3[C@@H](O)[C@@H]1O,"SRSF protein kinase 1 (SRPK1, Homo sapiens, UniProt Q96SB4)","ATP probe labelling, inhibitor, KiNativ profiling",,0.1 µM,,inhibition,-2.1%
COc1ccccc1-c1n[nH]c2nc(NC3CCN(C(=O)Cc4ccc(F)cc4F)CC3)ncc12,Leishmania donovani LINJ.36.6910,bead binding competition,Leishmania donovani extract,10 µM,baseline: vehicle,relative abundance,0.84
FC(F)(F)c1cccc(CNc2nc(NC3CCN(Cc4ccccc4)CC3)c3nc[nH]c3n2)c1,Cryptococcus neoformans,"mRNA level, RNA-seq, measured: MIOX CNAG_06623",,"48 µg/mL, 3 h",baseline: untreated,fold change,4.43
CN(C(=O)c1ccn2ncc(-c3ccc(C(N)=O)cc3)c2c1)c1ccc(C#N)cn1,Cryptosporidium parvum,,"UGA1 Nluc, IFN-gamma knockout C57BL/6 mice, faeces","oral, 10 mg/kg daily, 360 h post infection, treatment days 11-17",higher means more parasites,faecal Nluc luminescence,516 a.u. and 1650 a.u. and 3620 a.u. and 64300 a.u. and 3500 a.u.
CC[C@H](C)CCCCC(=O)N[C@@H](CCN)C(=O)N[C@H](C(=O)N[C@@H](CCN)C(=O)N[C@H]1CCNC(=O)[C@H]([C@@H](C)O)NC(=O)[C@H](CCN)NC(=O)[C@H](CCN)NC(=O)[C@H](CC(C)C)NC(=O)[C@@H](CC(C)C)NC(=O)[C@H](CCN)NC1=O)[C@@H](C)O,Escherichia coli,daily serial passaging,ATCC 8739,"highest sub-MIC, 21 days",baseline: initial MIC,MIC fold change,0.947
C[N+]1=C2C(c3ccccc3)=[N+]([O-])c3ccccc3N2CCC1,Parabacteroides distasonis and Bacteroides spp.,bacterial growth,,,,MIC90,4 µg/mL
COc1cc(C(SC(C)C)SC(C)C)ccc1OCCNS(=O)(=O)c1cccc(C(F)(F)F)c1,tobacco mosaic virus,curative activity,in vivo plant,,,EC50,> 2500 µg/mL
CN[C@H](CC(C)C)C(=O)N[C@H]1C(=O)N[C@@H](CC(N)=O)C(=O)N[C@H]2C(=N)N[C@H]3C(=O)N[C@H](C(=O)N[C@H](C(=O)O)c4cc(O)cc(O)c4-c4cc3ccc4O)[C@H](O)c3ccc(c(Cl)c3)Oc3cc2cc(c3O)Oc2ccc(cc2Cl)[C@H]1O,Enterococcus faecium,,ATCC BAA-2317 VanA,10 µg/mL,baseline: no antibiotic,accumulation increase,4 to 6 fold
C[C@H](NC(=O)[C@@H](O)c1cc(F)cc(F)c1)C(=O)N[C@@H]1C(=O)N(C)c2ccccc2-c2ccccc21,dengue virus type 2,"viral replication, Renilla luciferase reporter virus",MEF,48 h,,EC50,0.0032 µM
COc1ccc(Cn2c3cc(=O)n(Cc4cccc(Cl)n4)c(C)c3c(=O)n2-c2ccccn2)cc1,human respiratory syncytial virus,,recombinant reporter virus,"concentration not given, scale 0 to 100, added: cytidine 33.3 µM",,normalized viral replication,0
CCOC(=O)C1(Cc2ccc([N+](=O)[O-])cc2)Oc2cc(F)ccc2N(Cc2ccc([N+](=O)[O-])cc2)C1=O (stereo not shown),Echinochloa crus-galli,"fresh weight, greenhouse postemergence",,"postemergence, 150 g ai/ha, 21 days",,inhibition,37.3 ± 1.43%
Cc1cc(Cl)cc(S(C)=NC#N)c1NC(=O)c1cc(Br)nn1-c1ncccc1Cl (stereo not shown),Spodoptera litura,leaf-dip,third instar larvae,"6.25 ppm, 72 h",,mortality,100%
CC(C)[C@H]1NC(=O)C[C@H]2/C=C/CCSSC[C@@H](NC1=O)C(=O)N[C@H](Cc1cccc3ccccc13)C(=O)NCC(=O)O2,"Ephrin type-A receptor 6 (EPHA6, Homo sapiens, UniProt Q9UF33)","enzyme activity, inhibitor",,10 µM,,inhibition,-18.9%
CCOC(=O)C1(Cc2ccc(OC)cc2)Oc2cc(F)ccc2N(Cc2ccc(OC)cc2)C1=O (stereo not shown),Eclipta prostrata,"fresh weight, greenhouse postemergence",,"postemergence, 150 g ai/ha, 21 days",,inhibition,59.6 ± 3.23%
CC[C@H](C)[C@H](NC(=O)[C@H](CO)NC(=O)[C@H](Cc1ccc(O)cc1)NC(=O)[C@H](Cc1ccc(O)cc1)NC(=O)[C@H](CC(N)=O)NC(=O)CNC(=O)[C@H](CO)NC(=O)[C@H](Cc1ccc(O)cc1)NC(=O)[C@H](CO)NC(=O)[C@H](CO)NC(=O)[C@H](CC(N)=O)NC(=O)COCCOCCNC(=O)CN1CCN(CC(=O)O)CCN(CC(=O)O)CCN(CC(=O)O)CC1)C(=O)N[C@@H](CC(C)C)C(N)=O [copper-64 labelled],,dynamic PET,"KPC mouse, pancreatic cancer model, blood","intravenous, 27.5 min, 49 days after tamoxifen",,tumour uptake,3.35 %ID/mL
COc1ccc(C2=[N+]([O-])c3ccccc3N3CC(C)(C)CN=C23)cc1,Parabacteroides distasonis and Bacteroides spp.,bacterial growth,,,,MIC50,0.25 µg/mL
CC[C@H](C)[C@H](NC(=O)[C@H](C)NC(=O)CNC(=O)[C@H](C)NC(=O)[C@H](CCCCN)NC(=O)[C@H](CO)NC(=O)[C@H](C)NC(=O)[C@H](CCSC)NC(=O)CN)C(=O)N[C@@H](C)C(=O)NCC(=O)N[C@@H](CCCCN)C(=O)N[C@H](C(=O)N[C@@H](C)C(=O)N[C@@H](CCCCN)C(=O)N[C@H](C(=O)N[C@@H](C)C(=O)N[C@@H](CC(C)C)C(=O)N[C@@H](CCCCN)C(=O)N[C@@H](C)C(=O)N[C@@H](CC(C)C)C(N)=O)C(C)C)[C@@H](C)CC,Escherichia coli,,3538 wild type,added: nalidixic acid,,combination index,0.75
Cc1cc(C(=O)Nc2nc3cccc(C)c3n2[C@H]2CCCCN(C(=O)/C=C/CN(C)C)C2)ccn1,Trypanosoma brucei brucei,,2T1 CLK1 overexpressing,"0.3125 µM, compound pretreated",baseline: maximum,survival,208% and 218% and 205% and 210%
Cc1ccc(N2CC3CC(C2)N3C)cc1C(=O)NC1(c2ccc3c4c(cccc24)C(=O)N3C)CC1,Human coronavirus NL63,viral replication,,20 µM,,inhibition,99.4%
COc1ccccc1-c1n[nH]c2nc(N[C@H]3CC[C@H](NS(=O)(=O)CC(C)C)CC3)ncc12,,"bead binding, competition bead pull-down, measured: LINJ.36.2790",Leishmania donovani extract,10 µM,baseline: vehicle,relative abundance,1.32
CCSC(SCC)c1ccc(OCCNS(=O)(=O)c2ccc(C)cc2)c(Cl)c1,Tobacco mosaic virus,inactivation activity,plant in vivo,,,EC50,411.9 ± 0.7 µg/mL
CCOC(=O)C1(Cc2c(F)cccc2F)Oc2cc(F)ccc2N(Cc2c(F)cccc2F)C1=O (stereo not shown),Echinochloa crus-galli,"fresh weight, greenhouse postemergence",,"postemergence, 150 g ai/ha, 21 days",,inhibition,48 ± 1.79%
[O-][N+]1=C(c2ccccc2)C2=NCCN2c2ccccc21,Prevotella spp.,bacterial growth,,,,MIC50,≤ 0.06 µg/mL
CC(O)CN(CC(C)O)CC(C)O.O=C(O)C(Cl)Cl (stereo not shown),Eleusine indica,,,"15 mg/mL, 21 days, post-emergence, greenhouse",,herbicidal inhibition,-36%
CCc1nn(C)c2nc(-c3ccc(C(=O)O)cc3)nc(NCc3ccccc3)c12,Cryptosporidium parvum,,HCT-8,"EC50, 72 h",baseline: DMSO control,parasite number,93.8% and 74.4% and 90.8%
[O-][N+]1=C(Cc2ccccc2)C2=NCCCN2c2ccccc21,Prevotella spp.,bacterial growth,,,,MIC50,1 µg/mL
Cc1cc(Oc2nc(N3CC[C@@H](c4ccncc4)C3)ncc2F)[nH]n1,blood cancer cell lines,cell proliferation,,average over lines,,IC50,25.7 µM
CCCCCCCCCCCCCC(=O)N[C@H]1C(=O)N[C@@H](CN)C(=O)N[C@@H](CO)C(=O)N[C@@H](Cc2ccc(O)cc2)C(=O)O[C@H]1C,Staphylococcus aureus,,SH1000,"added: sphingomyelin, molar ratio 2",,MIC,2 µg/mL
C#CCN1C(=O)C(CC#C)(C(=O)OCC)Oc2ccccc21 (stereo not shown),Eclipta prostrata,,greenhouse,"postemergence, 150 g ai/ha, 21 days",,fresh weight inhibition,> 75%
C[N+]1=C2C(c3ccc(Cl)cc3)=[N+]([O-])c3ccccc3N2CCC1,Parabacteroides distasonis and Bacteroides spp.,bacterial growth,,,,MIC50,4 µg/mL
N=C(N)NCCC[C@@H]1NC(=O)[C@H](CCCCNC(=O)CCC(NC(=S)Nc2ccc(CC3CN(CC(=O)O)CCN(CC(=O)O)CCN(CC(=O)O)CCN3CC(=O)O)cc2)C(=O)NCCCC[C@@H]2NC(=O)[C@@H](Cc3ccc(O)cc3)NC(=O)[C@H](CC(=O)O)NC(=O)CNC(=O)[C@H](CCCNC(=N)N)NC2=O)NC(=O)[C@@H](Cc2ccc(O)cc2)NC(=O)[C@H](CC(=O)O)NC(=O)CNC1=O (stereo partly shown) [scandium-44 labelled],,ex vivo γ-counting,"female athymic nude mice, U-87 MG xenograft, bone","intravenous, 4 h",,tissue uptake,0.35 ± 0.24 %ID/g
O[C@]12C=C(c3nccc4c3[nH]c3ccccc34)[C@@H]3CCN(CCCC/C=C\CC1)C[C@@]31C[C@@H]3/C=C\CCCCN3[C@H]12,Mycobacterium intracellulare,Alamar Blue,ATCC 23068,5% calf serum in broth,,IC50,1.64 µg/mL
CCOC(=O)C1(Cc2ccccc2F)Oc2cc(F)ccc2N(Cc2ccccc2F)C1=O (stereo not shown),Echinochloa crus-galli,"fresh weight, greenhouse postemergence",,"postemergence, 150 g ai/ha, 21 days",,inhibition,47.1 ± 1.7%
CCCSC(SCCC)c1ccc(OCCNS(=O)(=O)c2ccc(Br)cc2)c(OC)c1,Tobacco mosaic virus,inactivation activity,plant in vivo,,,EC50,43.2 ± 2.3 µg/mL
Cc1cc(-c2ccc3ccccc3c2)nnc1NCCN1CCN(C)CC1,"Cytochrome P450 2C19 (CYP2C19, Homo sapiens, UniProt P33261)",substrate,recombinant enzyme,"100 nM, 1 h",,remaining compound,94%
CCCSC(SCCC)c1ccc(OCCNS(=O)(=O)c2cccc(C(F)(F)F)c2)c(OC)c1,Tobacco mosaic virus,protective activity,plant in vivo,,,EC50,287.7 ± 1.6 µg/mL
C[N+]1=C2C(c3ccc([N+](=O)[O-])cc3)=[N+]([O-])c3ccccc3N2CCC1,Prevotella spp.,bacterial growth,,,,MIC50,0.5 µg/mL
CCOC(=O)C1(C)Oc2cc(F)ccc2N(C)C1=O (stereo not shown),Eclipta prostrata,"fresh weight, greenhouse postemergence",,"postemergence, 150 g ai/ha, 21 days",,inhibition,59.1 ± 2.47%
CS(C)(=O)=Nc1ccc(-c2ccc(-c3nc4cc(O[C@@H]5CO[C@H]6[C@@H]5OC[C@H]6O)[nH]c4cc3F)cc2)cc1,"Calcium/calmodulin-dependent protein kinase type IV (CAMK4, Homo sapiens, UniProt Q16566)","enzyme activity, inhibitor",,10 µM,,inhibition,8%
CC(C)(C)C(=O)OCOP(=O)(OCOC(=O)C(C)(C)C)C1CCCN(O)C1=O (stereo not shown),RXF 393,,,,,log TGI,-5.76 log M
CCCSC(SCCC)c1ccc(OCCNS(=O)(=O)c2ccc(Br)cc2)c(Cl)c1,Tobacco mosaic virus,protective activity,plant in vivo,,,EC50,636.1 ± 3.2 µg/mL
O=C1NC(=O)c2c1c1cc(F)c[n+]3c1c1c2c2cc(O)ccc2[n]1[Ru-4]312([N]=C=S)[S+]3CC[S+]1CC[S+]2CC3 (stereo not shown),"SRSF protein kinase 3 (SRPK3, Homo sapiens, UniProt Q9UPE1)",enzyme activity,,"100 nM, human enzyme, added: 10 µM ATP",baseline: untreated,remaining activity,68%
CCCSC(SCCC)c1ccc(OCCNS(=O)(=O)c2cccc(Br)c2)c(Cl)c1,Tobacco mosaic virus,curative activity,plant in vivo,,,EC50,244 ± 2.5 µg/mL
O=C1NC2(CC2)COc2ncc(F)cc2[C@H]2COCCN2c2ccn3ncc1c3n2,,,"Sprague-Dawley rat, male, serum","oral, 5 mg/kg/day, 4 weeks daily, end of recovery period",,total cholesterol,1.24 ± 0.16 mmol/L
CCCSC(SCCC)c1ccc(OCCNS(=O)(=O)c2ccccc2C(F)(F)F)c(OC)c1,Tobacco mosaic virus,inactivation activity,plant in vivo,,,EC50,766.7 ± 4.3 µg/mL
NCCCO.O=C(O)C(Cl)Cl,Eleusine indica,,,"15 mg/mL, 21 days, pre-emergence, greenhouse",,herbicidal inhibition,0%
CCCSC(SCCC)c1ccc(OCCNS(=O)(=O)c2ccc(F)cc2)c(OC)c1,Tobacco mosaic virus,curative activity,plant in vivo,,,EC50,296 ± 3.5 µg/mL
COC(=O)C1=CO[C@@H](C)[C@@H]2Cn3ccc4c5ccccc5nc-4c3C[C@H]12,Plasmodium falciparum,"growth, [3H]-hypoxanthine uptake",FCR3,48 h,,IC50,7.02 ± 3.17 µM

# Excerpt of the above:
SMILES,target or system,test,system,conditions,scale,endpoint,value
COC(=O)C1=CO[C@@H](C)[C@@H]2Cn3ccc4c5ccccc5nc-4c3C[C@H]12,Plasmodium falciparum,"growth, [3H]-hypoxanthine uptake",FCR3,48 h,,IC50,7.02 ± 3.17 µM
COc1cc(C(SC(C)C)SC(C)C)ccc1OCCNS(=O)(=O)c1cccc(C(F)(F)F)c1,tobacco mosaic virus,curative activity,in vivo plant,,,EC50,> 2500 µg/mL
CCCCCCCCCCCCCC(=O)N[C@H]1C(=O)N[C@@H](CN)C(=O)N[C@@H](CO)C(=O)N[C@@H](Cc2ccc(O)cc2)C(=O)O[C@H]1C,Staphylococcus aureus,,SH1000,"added: sphingomyelin, molar ratio 2",,MIC,2 µg/mL
COc1ccccc1-c1n[nH]c2nc(N[C@H]3CC[C@H](NS(=O)(=O)CC(C)C)CC3)ncc12,,"bead binding, competition bead pull-down, measured: LINJ.36.2790",Leishmania donovani extract,10 µM,baseline: vehicle,relative abundance,1.32
